Experimental data gathered from unrelated publications.
Each numbered part is a random draw from the data of one study; scales do not carry over between parts. Substitutions count along the parent as printed.

Block 1
Target: Prothrombin, mature alpha-thrombin (F2, Homo sapiens, UniProt P00734)
Technique: aptamer microarray, sandwich
Form: DNA with 2'F-ANA
Medium: in vitro
Tested at: 200 nM
Notes: whole 15-mer aptamer, many near background
Added: Cy3 exosite-II aptamer, 400 nM
Direction: higher = stronger binding
Strand: GGTTGGTGTGGTTGG
Modification | mean fluorescence intensity
2'F-ANA at 7 8 9 12 14 | 267 a.u.
2'F-ANA at 3 5 10 13 14 15 | 56.6 a.u.
2'F-ANA at 3 4 7 13 14 | 345 a.u.
2'F-ANA at 1 2 6 7 8 10 11 | 56.4 a.u.
2'F-ANA at 2 3 4 5 6 8 11 12 15 | 151 a.u.
2'F-ANA at 3 4 6 7 9 12 13 14 15 | 233 a.u.
2'F-ANA at 1 2 4 5 6 7 9 10 11 12 | 51.7 a.u.
2'F-ANA at 3 4 5 10 13 14 15 | 47.1 a.u.
2'F-ANA at 4 8 9 10 12 13 14 | 58.1 a.u.
2'F-ANA at 1 5 6 7 8 11 12 14 | 51.7 a.u.
2'F-ANA at 1 3 4 5 6 9 10 11 12 14 15 | 61.9 a.u.
2'F-ANA at 3 10 11 13 14 | 512 a.u.
2'F-ANA at 1 4 5 7 9 10 12 13 14 | 45.6 a.u.
2'F-ANA at 1 5 6 7 8 11 12 15 | 89.9 a.u.
2'F-ANA at 1 2 3 4 9 10 11 12 13 | 65.7 a.u.
2'F-ANA at 1 2 5 6 8 11 12 14 | 48.9 a.u.
2'F-ANA at 2 3 7 8 9 10 12 13 | 372 a.u.
2'F-ANA at 3 4 7 8 9 10 11 12 13 15 | 263 a.u.

Block 2
Target: ABI1, truncated, D143A, DHFR fusion (Arabidopsis thaliana, UniProt P49597)
Technique: DHFR PCA, dose-response
Medium: yeast
Notes: Hill fit, mean, not affinity
Added: (+)-ABA, dose series
Direction: lower = more sensitive
Starting sequence: PYL1, truncated, DHFR fusion (Arabidopsis thaliana, UniProt Q8VZS8); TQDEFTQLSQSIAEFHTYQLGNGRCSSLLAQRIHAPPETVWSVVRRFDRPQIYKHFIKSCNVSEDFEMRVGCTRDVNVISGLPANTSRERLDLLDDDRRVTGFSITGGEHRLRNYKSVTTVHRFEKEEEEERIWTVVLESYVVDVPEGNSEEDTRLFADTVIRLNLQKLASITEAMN
Variant | ABA EC50 [µM]
T73I | 1.49
S59G | 5.78
E38L | 73.7
S150E | 47.9
E4G | 4.24
Y53L | 913
E14T | 4.25
S9G | 2.82
F5A | 3.94
Q167L | 2.01
L29T | 29.8
N22F | 2.88
I133M | 1.92
V136N | 286
D75N | 1.54
S59I | 57.3
L94Y | 8.25
L164S | 2.24
T73R | 8.15
S9F | 11.3
R69S | 2.93
G71H | 69.5
L82C | 51.7
I172A | 19.8
E67T | 2.2

Block 3
Target: CEBPB, bZIP domain (human)
Technique: DHFR protein complementation
Medium: yeast
Notes: single substitutions, most at no-binding floor
Reference: wild-type JUN-FOS pair
Direction: higher = stronger binding
Starting sequence: JUN, bZIP domain (human); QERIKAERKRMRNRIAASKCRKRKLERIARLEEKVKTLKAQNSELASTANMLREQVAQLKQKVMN; partner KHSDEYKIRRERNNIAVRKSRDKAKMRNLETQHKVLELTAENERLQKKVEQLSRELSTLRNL
Variant | binding fitness
L31A | -1.32 natural log
I28W | -1.1 natural log
K34V | -1.34 natural log
Q55Y | -1.11 natural log
Q55T | -1.39 natural log
A29C | -1.39 natural log
A49H | -1.44 natural log
T48Q | -1.18 natural log
E54T | -1.3 natural log
Q55S | -1.38 natural log
L38H | -1.47 natural log
S47P | -1.5 natural log
K39G | -1.45 natural log
L45Y | -1.48 natural log
E33H | -1.43 natural log
E32A | -1.1 natural log
Q41L | -1.37 natural log
K39F | -1.47 natural log
I28A | -1.09 natural log
R30S | -1.04 natural log
Q41C | -1.48 natural log

Block 4
Target: Sal-like protein 4, full length isoform A (SALL4, Homo sapiens, UniProt Q9UJQ4, residues 1-1053)
Chain of UniProt Q9UJQ4 (whole entry, looked up): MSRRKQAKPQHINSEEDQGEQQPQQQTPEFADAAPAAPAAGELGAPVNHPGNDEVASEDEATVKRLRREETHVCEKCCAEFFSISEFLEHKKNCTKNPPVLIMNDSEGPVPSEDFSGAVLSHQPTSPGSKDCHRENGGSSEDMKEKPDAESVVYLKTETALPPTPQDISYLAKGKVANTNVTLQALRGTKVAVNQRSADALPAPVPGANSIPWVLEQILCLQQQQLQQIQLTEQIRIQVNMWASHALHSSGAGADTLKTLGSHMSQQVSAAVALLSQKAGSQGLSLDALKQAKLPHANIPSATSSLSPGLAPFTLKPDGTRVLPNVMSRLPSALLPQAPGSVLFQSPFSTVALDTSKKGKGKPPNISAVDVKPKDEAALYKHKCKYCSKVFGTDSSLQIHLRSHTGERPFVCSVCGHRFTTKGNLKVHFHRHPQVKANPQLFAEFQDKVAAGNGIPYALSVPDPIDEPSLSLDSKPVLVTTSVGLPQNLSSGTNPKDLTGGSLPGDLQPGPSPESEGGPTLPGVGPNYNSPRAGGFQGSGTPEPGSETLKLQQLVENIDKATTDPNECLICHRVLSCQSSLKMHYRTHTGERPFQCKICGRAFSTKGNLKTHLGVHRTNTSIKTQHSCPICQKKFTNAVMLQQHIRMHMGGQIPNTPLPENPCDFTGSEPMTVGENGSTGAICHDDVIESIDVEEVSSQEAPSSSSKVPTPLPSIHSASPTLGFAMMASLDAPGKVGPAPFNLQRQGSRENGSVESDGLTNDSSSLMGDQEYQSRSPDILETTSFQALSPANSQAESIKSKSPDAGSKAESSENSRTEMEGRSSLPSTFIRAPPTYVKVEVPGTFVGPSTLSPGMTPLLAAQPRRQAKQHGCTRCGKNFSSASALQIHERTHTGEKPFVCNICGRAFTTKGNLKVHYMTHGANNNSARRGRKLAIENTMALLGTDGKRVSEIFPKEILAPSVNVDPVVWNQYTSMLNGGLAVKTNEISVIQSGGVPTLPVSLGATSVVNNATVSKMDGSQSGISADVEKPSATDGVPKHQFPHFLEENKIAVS
Technique: universal PBM
Form: double-stranded DNA, one strand shown
Medium: in vitro
Tested at: 600 nM
Notes: 8-mer, flanks averaged, mean of replicates
Direction: higher = stronger binding
Strand | E-score
CAATTAGC | 0.159
TAAGAGGA | 0.102
CCATTTAA | 0.231
CTTTAGCC | 0.00481
CCGTAAAG | -0.0714
CTTGATAA | 0.262
CTGTAATA | 0.315
GCCTAATA | 0.114
GACCAGAC | -0.222
AATTGCTA | 0.254
GCTTAGAA | 0.0169
AGCTCCTA | -0.133
GGGTCTAC | -0.162
CTGATGAC | -0.12
AAGCAGTC | -0.0386
CGCCTAGA | -0.0859
CTTTGGTC | 0.00976
GACCGCAA | -0.109
CCCGTGTC | -0.403
AGATTCGG | -0.007
GCGATAAC | 0.112
ACAAATTC | 0.244
AACTGCTT | -0.0532

Block 5
Target: Transcriptional repressor CTCF (CTCF, Homo sapiens, UniProt P49711, residues 1-727, full length assumed)
Chain of UniProt P49711 (whole entry, looked up): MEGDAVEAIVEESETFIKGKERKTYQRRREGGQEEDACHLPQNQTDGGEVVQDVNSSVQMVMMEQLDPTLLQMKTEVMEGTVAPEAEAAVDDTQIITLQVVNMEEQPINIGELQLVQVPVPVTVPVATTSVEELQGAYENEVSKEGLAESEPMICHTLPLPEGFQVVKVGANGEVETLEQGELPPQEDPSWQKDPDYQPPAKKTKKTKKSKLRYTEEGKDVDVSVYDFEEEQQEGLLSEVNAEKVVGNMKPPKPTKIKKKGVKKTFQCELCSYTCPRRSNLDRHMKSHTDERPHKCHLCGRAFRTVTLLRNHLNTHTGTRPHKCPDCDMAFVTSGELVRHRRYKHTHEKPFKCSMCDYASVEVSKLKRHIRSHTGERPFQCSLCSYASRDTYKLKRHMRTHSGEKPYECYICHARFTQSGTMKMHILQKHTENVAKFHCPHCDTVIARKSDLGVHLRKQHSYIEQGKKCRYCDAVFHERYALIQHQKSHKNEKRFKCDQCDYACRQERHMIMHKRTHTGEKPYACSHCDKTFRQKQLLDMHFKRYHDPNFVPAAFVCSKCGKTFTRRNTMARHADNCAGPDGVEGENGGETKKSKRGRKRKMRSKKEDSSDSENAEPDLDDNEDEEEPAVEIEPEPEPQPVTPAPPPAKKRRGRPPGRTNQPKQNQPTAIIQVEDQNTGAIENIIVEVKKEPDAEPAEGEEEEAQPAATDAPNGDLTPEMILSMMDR
Technique: protein-binding microarray
Form: double-stranded DNA, one strand shown
Medium: in vitro
Tested at: not given
Notes: k-mer, scored over probes, only values ≥0.25
Direction: higher = stronger binding
Strand | E-score
CAGTGCGC | 0.255
ATAACAGC | 0.263
AAGCGCTT | 0.266
TGCGGTAA | 0.263
ATATTGCG | 0.282
TTATTGAA | 0.259
AGCGCGCG | 0.289
GGATAGTA | 0.261
ATATGCGC | 0.446
GTATTGTA | 0.28
TAAACATA | 0.318
TAGTATAA | 0.302
ATGTTAAA | 0.257
GTGGTGTA | 0.281
ATGCATTA | 0.313
ACGAGTAA | 0.265
ACATTTAA | 0.26
ATAAAATG | 0.334
TAATATTA | 0.402
TTGAAAAA | 0.257
AATACTCG | 0.265
ACACACAT | 0.288
GAAATATA | 0.333
TATTATAA | 0.289

Block 6
Target: CCND1, cyclin fold, Cln2 fusion (human)
Technique: yeast growth competition, sequencing
Medium: yeast
Notes: weak parent motif
Reference: not given
Direction: higher = stronger binding
Starting sequence: PKMYT1 docking peptide (human); SFEPRNLLSLFED; partner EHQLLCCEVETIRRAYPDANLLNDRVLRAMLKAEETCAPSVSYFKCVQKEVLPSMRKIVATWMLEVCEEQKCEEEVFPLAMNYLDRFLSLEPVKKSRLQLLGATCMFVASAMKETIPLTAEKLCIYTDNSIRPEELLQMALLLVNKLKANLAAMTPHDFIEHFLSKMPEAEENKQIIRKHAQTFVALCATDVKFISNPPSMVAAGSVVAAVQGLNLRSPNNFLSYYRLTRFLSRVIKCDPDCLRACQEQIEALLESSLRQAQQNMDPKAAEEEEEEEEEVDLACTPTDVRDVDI
Variant | normalised enrichment score
SFEPRNFLSLFED [L7F] | 1.13
SFEPRNLLWLFED [S9W] | 1.38
SFEPRSLLSLFED [N6S] | 1.52
SFEPLNLLSLFED [R5L] | 1.76
SFEPRNALSLFED [L7A] | 1.01
SFEPRNLLSLFKD [E12K] | 0.372
SFGPRNLLSLFED [E3G] | 0.119
SFEPRFLLSLFED [N6F] | 1.91
SFEPRNLQSLFED [L8Q] | 0.815
LFEPRNLLSLFED [S1L] | 0.317
SFEPRNLLNLFED [S9N] | 1.24
SFEPRNLFSLFED [L8F] | 0.65
SFEPRNLLSLFID [E12I] | 1.39
SFEPRNLLSLFES [D13S] | 1.18
SLEPRNLLSLFED [F2L] | 0.962
SFEPRNLLSLFLD [E12L] | 0.666
SFEPRNLLSLFCD [E12C] | 1.23
SFEPRNLGSLFED [L8G] | 0.464
SFEPHNLLSLFED [R5H] | 0.411
SFEPRNLLHLFED [S9H] | 0.714
SFHPRNLLSLFED [E3H] | 0.901
SFEPKNLLSLLED [R5K F11L] | 0.327
SFEPRNLLSLRED [F11R] | 0.224
SFEPRNLYSLFED [L8Y] | 0.382
SFEARNLLSLFED [P4A] | 1.48

A few entries again (block 4):
Strand | E-score
CTGATGAC | -0.12
CCATTTAA | 0.231
ACAAATTC | 0.244
CTTTAGCC | 0.00481
GCTTAGAA | 0.0169
GCCTAATA | 0.114
TAAGAGGA | 0.102
AATTGCTA | 0.254
CGCCTAGA | -0.0859
CTGTAATA | 0.315
CTTTGGTC | 0.00976
CAATTAGC | 0.159
GGGTCTAC | -0.162
CCGTAAAG | -0.0714
CTTGATAA | 0.262
AACTGCTT | -0.0532
GCGATAAC | 0.112
AGATTCGG | -0.007
